Published values of several laboratories.
Every numbered part comes from another study and shows a few of its results, in no order.
Chain of UniProt Q15349 (whole entry, looked up): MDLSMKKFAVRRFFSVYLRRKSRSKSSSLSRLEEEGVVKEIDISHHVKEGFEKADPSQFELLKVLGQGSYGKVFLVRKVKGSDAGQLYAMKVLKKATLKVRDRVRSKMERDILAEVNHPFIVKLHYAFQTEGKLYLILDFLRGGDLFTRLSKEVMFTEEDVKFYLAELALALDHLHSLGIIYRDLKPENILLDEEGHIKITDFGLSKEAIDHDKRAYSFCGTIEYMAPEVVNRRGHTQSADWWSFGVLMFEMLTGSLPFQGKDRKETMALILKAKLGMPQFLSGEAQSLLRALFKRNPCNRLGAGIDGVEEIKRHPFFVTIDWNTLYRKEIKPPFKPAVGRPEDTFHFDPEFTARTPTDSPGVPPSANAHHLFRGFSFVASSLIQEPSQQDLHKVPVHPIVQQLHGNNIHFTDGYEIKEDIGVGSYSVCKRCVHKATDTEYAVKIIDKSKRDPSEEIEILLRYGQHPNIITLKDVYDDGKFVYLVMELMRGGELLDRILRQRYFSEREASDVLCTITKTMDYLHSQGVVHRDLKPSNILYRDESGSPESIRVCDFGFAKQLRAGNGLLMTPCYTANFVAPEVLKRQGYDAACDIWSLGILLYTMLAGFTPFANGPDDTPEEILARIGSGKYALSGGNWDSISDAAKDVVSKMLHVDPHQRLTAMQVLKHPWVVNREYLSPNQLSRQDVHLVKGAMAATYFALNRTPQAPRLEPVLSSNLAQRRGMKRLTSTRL
Chain of UniProt P42679 (whole entry, looked up): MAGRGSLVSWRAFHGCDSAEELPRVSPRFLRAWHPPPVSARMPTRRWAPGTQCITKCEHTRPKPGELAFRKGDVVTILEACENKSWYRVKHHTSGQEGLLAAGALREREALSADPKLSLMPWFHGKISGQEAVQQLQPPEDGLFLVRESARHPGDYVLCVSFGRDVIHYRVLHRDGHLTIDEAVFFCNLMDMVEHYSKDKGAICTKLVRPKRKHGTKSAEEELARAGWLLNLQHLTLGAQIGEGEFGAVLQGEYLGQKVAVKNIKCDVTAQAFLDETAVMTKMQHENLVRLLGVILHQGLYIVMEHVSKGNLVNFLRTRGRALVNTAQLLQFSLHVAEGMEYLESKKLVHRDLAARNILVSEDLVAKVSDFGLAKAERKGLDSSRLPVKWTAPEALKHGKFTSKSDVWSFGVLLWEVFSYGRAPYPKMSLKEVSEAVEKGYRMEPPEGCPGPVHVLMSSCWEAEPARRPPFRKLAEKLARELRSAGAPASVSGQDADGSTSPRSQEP
Chain of UniProt Q9BWU1 (whole entry, looked up): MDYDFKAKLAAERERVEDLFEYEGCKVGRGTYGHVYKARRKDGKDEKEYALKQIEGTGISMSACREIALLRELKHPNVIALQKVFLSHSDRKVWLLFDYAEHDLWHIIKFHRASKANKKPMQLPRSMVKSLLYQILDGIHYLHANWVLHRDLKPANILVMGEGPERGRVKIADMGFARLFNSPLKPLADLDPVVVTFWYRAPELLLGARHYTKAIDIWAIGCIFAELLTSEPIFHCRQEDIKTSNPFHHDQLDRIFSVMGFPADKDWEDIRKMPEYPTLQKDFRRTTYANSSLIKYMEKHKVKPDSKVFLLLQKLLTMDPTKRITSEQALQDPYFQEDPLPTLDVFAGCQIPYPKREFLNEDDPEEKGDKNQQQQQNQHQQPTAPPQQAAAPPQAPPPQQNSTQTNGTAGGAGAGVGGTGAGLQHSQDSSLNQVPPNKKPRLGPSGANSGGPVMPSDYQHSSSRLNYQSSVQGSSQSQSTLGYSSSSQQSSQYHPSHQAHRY
Chain of UniProt Q9HCP0 (whole entry, looked up): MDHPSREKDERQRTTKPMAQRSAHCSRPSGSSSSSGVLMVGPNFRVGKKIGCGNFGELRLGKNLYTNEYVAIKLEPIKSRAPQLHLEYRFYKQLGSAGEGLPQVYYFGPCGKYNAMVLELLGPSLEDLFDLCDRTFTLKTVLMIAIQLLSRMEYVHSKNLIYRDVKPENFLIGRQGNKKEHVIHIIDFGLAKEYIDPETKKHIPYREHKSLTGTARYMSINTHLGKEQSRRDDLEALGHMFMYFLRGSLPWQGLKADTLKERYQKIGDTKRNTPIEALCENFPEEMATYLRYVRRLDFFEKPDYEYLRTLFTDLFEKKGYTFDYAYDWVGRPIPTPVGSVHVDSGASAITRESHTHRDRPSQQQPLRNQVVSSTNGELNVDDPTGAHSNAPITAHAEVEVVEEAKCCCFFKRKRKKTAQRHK
Chain of UniProt P48729 (whole entry, looked up): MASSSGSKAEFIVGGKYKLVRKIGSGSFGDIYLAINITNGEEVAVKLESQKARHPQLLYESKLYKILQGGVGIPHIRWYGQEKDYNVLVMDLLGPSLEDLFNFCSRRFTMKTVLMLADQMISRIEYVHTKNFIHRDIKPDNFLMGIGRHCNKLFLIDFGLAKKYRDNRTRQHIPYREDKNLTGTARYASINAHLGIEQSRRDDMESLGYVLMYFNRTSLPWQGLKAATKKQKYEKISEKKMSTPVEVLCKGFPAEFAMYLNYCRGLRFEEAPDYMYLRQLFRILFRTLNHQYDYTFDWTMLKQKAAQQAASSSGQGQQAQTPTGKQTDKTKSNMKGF
Chain of UniProt P53778 (whole entry, looked up): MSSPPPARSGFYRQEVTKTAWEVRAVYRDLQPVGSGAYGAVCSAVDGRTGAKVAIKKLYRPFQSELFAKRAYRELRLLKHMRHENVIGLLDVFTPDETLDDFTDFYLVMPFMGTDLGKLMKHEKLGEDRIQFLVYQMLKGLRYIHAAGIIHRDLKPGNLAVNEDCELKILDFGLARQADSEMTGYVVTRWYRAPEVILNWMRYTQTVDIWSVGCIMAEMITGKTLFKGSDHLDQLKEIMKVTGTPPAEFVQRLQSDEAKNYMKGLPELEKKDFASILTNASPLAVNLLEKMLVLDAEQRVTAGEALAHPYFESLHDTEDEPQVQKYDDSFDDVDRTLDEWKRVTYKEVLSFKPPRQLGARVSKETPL
Chain of UniProt P27037 (whole entry, looked up): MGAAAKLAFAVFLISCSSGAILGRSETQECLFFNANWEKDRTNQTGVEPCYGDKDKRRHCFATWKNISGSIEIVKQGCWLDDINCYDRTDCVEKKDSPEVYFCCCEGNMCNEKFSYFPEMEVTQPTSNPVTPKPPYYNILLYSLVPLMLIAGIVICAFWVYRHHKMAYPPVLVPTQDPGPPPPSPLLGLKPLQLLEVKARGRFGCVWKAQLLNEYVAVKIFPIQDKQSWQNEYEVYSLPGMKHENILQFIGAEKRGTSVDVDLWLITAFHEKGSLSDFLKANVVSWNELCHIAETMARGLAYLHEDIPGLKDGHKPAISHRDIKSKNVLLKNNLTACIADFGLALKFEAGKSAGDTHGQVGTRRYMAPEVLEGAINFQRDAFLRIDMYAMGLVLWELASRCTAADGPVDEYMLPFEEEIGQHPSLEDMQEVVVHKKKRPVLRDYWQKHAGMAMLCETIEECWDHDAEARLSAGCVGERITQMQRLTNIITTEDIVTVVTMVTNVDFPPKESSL
Chain of UniProt Q14004 (whole entry, looked up): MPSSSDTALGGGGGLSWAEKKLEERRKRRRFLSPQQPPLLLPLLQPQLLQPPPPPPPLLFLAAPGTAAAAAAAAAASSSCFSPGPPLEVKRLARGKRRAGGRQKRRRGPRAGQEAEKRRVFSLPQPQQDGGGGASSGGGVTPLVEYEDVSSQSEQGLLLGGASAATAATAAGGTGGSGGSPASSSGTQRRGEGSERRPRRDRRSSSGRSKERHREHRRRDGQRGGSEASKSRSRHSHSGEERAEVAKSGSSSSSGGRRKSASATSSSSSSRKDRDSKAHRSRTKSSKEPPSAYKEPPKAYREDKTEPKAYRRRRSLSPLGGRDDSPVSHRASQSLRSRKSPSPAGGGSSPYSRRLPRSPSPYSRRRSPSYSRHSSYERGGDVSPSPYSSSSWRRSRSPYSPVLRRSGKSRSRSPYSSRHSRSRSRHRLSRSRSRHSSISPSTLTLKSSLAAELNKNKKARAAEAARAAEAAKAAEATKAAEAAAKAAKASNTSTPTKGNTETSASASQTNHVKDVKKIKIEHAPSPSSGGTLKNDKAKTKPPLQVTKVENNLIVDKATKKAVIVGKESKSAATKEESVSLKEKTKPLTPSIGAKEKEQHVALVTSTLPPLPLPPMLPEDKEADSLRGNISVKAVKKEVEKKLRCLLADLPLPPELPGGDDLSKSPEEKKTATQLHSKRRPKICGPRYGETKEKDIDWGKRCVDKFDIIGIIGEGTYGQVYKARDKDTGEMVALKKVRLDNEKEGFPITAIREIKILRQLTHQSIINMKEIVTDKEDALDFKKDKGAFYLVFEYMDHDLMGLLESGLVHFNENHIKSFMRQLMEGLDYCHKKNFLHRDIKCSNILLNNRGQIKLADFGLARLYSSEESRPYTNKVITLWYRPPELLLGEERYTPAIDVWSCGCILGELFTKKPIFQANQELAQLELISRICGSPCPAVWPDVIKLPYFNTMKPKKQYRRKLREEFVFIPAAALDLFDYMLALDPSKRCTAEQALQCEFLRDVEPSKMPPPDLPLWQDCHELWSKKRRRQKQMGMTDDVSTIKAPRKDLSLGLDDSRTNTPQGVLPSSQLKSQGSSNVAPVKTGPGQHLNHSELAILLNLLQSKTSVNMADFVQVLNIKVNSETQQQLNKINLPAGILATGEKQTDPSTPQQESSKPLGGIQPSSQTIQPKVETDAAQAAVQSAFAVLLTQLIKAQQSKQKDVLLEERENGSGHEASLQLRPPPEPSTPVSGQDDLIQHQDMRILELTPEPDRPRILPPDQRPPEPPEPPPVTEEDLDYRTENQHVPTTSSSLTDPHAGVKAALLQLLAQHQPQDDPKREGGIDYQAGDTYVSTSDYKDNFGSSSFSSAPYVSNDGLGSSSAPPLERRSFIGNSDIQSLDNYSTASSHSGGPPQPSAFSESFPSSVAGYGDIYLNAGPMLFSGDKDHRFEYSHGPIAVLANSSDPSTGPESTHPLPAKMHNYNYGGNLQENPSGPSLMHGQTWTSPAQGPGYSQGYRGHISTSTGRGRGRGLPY

Sample 1 — effect on: enzyme activity; action: inhibitor; concentration: 0.5 µM; relative to: control
SMILES: N#CC(c1ccnc(NCCc2cccnc2)n1)c1nc2ccccc2s1 (stereo not shown)
target	remaining activity
Mitogen-activated protein kinase 12 (MAPK12, Homo sapiens, UniProt P53778)	96.7%
Casein kinase I isoform alpha (CSNK1A1, Homo sapiens, UniProt P48729)	80%
Serine/threonine-protein kinase WNK2 (WNK2, Homo sapiens, UniProt Q9Y3S1)	106%
Serine/threonine-protein kinase Chk1 (CHEK1, Homo sapiens, UniProt O14757)	94.6%
Dual specificity mitogen-activated protein kinase kinase 6 (MAP2K6, Homo sapiens, UniProt P52564)	92.5%
Tyrosine-protein kinase BTK (BTK, Homo sapiens, UniProt Q06187)	88.8%

Sample 2 — effect on: AlphaScreen signal; technique: AlphaScreen counter screen; medium: His6 peptide without bromodomain; concentration: 50 µM; setting: assay interference check
SMILES	inhibition [%]
Cl.NCCNS(=O)(=O)c1cccc2c(Cl)cccc12	13.7
O=C1Nc2ccc(Br)cc2/C1=C/c1cc2c([nH]1)CCCC2	51
O=C(NCCCNc1nc(Nc2cccc(NC(=O)N3CCCC3)c2)ncc1I)c1cccs1	15.6
O=C1Nc2ccc(Br)cc2C1=CC(=O)c1ccc(F)cc1	65.5
Cc1cc(Nc2cc(N3CCN(C)CC3)nc(Sc3ccc(NC(=O)C4CC4)cc3)n2)[nH]n1	27.2

Sample 3 — host: mouse; medium: microsomes or S9; concentration: 2 µM; time: 0.5 h
SMILES	remaining compound
O=C(C1CCC1)N1CCCC1c1nc(C2CCOCC2)no1 (stereo not shown)	30.4%
CC(=O)N1c2nc(-c3ccco3)nn2C2(CCCCC2)[C@@H]2CCCC[C@@H]21	1.13%
Cc1nc(N2CCN(c3ccccn3)CC2)nc2c1C(=O)CC(c1cccc(Cl)c1)C2 (stereo not shown)	86.1%
CCOC(=O)c1[nH]c(C)c(C(=O)Nc2n[nH]c3cc(Br)ccc23)c1C	17.8%
CN1C(=O)c2cccc3c2C1=Cc1ccc2ccccc2c1O3	52.8%
COc1ccc(CN2Cc3c(Cl)ccnc3C2=O)cc1OC	0.556%
CN1CCN(c2nc(O)c3c(-c4ccsc4)ccnc3n2)CC1	54.4%
Cc1ccc(C2(c3noc(Cn4ccnc4)n3)CCCC2)cc1	39.1%

Sample 4 — concentration: 1 µM
SMILES: CNCc1ccccc1-c1csc([C@H](C)Nc2nc(C)nc3cc(OC)c(OC)cc23)c1
target	effect on	technique	remaining binding [%]
Serine/threonine-protein kinase 24 (STK24, Homo sapiens, UniProt Q9Y6E0)	cell-free assay	competition with immobilised ligand	100
Epidermal growth factor receptor (EGFR, Homo sapiens, UniProt P00533, L858R)	cell-free assay	competition with immobilised ligand	100
Tyrosine-protein kinase ABL1, phosphorylated (ABL1, Homo sapiens, UniProt P00519, E255K)	binding	competition with immobilised ligand	81
Megakaryocyte-associated tyrosine-protein kinase (MATK, Homo sapiens, UniProt P42679)	cell-free assay	competition with immobilised ligand	51
Ribosomal protein S6 kinase alpha-2, C-terminal kinase domain (RPS6KA2, Homo sapiens, UniProt Q15349)	cell-free assay	competition with immobilised ligand	100
Activin receptor type-2A (ACVR2A, Homo sapiens, UniProt P27037)	cell-free assay	competition with immobilised ligand	76
Inhibitor of nuclear factor kappa-B kinase subunit epsilon (IKBKE, Homo sapiens, UniProt Q14164)	cell-free assay	competition with immobilised ligand	85
Serine/threonine-protein kinase mTOR (MTOR, Homo sapiens, UniProt P42345)	cell-free assay	competition with immobilised ligand	100
Mitogen-activated protein kinase kinase kinase 11 (MAP3K11, Homo sapiens, UniProt Q16584)	cell-free assay	competition with immobilised ligand	100
Serine/threonine-protein kinase 17B (STK17B, Homo sapiens, UniProt O94768)	cell-free assay	competition with immobilised ligand	100
Calcium/calmodulin-dependent protein kinase type II subunit alpha (CAMK2A, Homo sapiens, UniProt Q9UQM7)	cell-free assay	competition with immobilised ligand	100
Casein kinase I isoform gamma-1 (CSNK1G1, Homo sapiens, UniProt Q9HCP0)	cell-free assay	competition with immobilised ligand	92
Receptor-type tyrosine-protein kinase FLT3 (FLT3, Homo sapiens, UniProt P36888, D835H)	cell-free assay	competition with immobilised ligand	74
Tyrosine-protein kinase SYK (SYK, Homo sapiens, UniProt P43405)	cell-free assay	competition with immobilised ligand	100
Cyclin-dependent kinase 19 (CDK19, Homo sapiens, UniProt Q9BWU1)	–	competition binding	88
Cyclin-dependent kinase 13 (CDK13, Homo sapiens, UniProt Q14004)	cell-free assay	competition with immobilised ligand	93
Platelet-derived growth factor receptor beta (PDGFRB, Homo sapiens, UniProt P09619)	cell-free assay	competition with immobilised ligand	99
Ribosomal protein S6 kinase alpha-5, C-terminal kinase domain (RPS6KA5, Homo sapiens, UniProt O75582)	cell-free assay	competition with immobilised ligand	82

A few entries again (sample 1):
target	remaining activity
Mitogen-activated protein kinase 12 (MAPK12, Homo sapiens, UniProt P53778)	96.7%
Casein kinase I isoform alpha (CSNK1A1, Homo sapiens, UniProt P48729)	80%
Serine/threonine-protein kinase WNK2 (WNK2, Homo sapiens, UniProt Q9Y3S1)	106%
